{"data": "Assay results pooled from the literature", "note": "Compare with care: the assays were run in different laboratories. Numbers after ± are the reported error.", "chain of UniProt P04395 (whole entry, looked up)": "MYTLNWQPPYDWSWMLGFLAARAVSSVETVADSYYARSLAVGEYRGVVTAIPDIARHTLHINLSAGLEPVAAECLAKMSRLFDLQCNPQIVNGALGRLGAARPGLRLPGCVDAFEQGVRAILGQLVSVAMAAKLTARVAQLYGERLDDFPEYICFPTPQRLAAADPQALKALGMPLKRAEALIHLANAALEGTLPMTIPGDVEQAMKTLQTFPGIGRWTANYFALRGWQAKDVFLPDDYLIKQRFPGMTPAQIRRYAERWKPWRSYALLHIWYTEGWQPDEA", "chain of UniProt Q96T21 (whole entry, looked up)": "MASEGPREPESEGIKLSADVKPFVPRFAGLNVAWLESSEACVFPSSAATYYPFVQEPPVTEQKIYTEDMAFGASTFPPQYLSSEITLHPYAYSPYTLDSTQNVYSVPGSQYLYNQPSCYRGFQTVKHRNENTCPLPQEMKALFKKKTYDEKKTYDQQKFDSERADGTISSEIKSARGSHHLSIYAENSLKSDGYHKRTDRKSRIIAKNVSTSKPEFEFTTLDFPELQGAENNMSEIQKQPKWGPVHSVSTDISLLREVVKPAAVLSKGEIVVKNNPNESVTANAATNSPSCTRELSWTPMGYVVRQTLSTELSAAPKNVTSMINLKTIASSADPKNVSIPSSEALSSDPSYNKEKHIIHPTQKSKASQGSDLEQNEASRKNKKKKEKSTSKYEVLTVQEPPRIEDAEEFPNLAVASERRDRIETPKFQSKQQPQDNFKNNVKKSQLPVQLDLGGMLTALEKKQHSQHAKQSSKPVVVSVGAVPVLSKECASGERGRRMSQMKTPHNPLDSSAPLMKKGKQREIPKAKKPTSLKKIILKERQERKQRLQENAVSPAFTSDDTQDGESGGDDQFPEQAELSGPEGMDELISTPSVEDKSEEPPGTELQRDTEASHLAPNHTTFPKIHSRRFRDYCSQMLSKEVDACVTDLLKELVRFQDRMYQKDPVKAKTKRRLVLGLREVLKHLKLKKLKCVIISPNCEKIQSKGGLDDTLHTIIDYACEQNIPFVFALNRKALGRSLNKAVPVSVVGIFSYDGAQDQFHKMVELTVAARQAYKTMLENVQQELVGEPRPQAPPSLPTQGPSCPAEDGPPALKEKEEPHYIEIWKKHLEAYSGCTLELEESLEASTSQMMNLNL", "chain of UniProt P19525 (whole entry, unmodified, looked up)": "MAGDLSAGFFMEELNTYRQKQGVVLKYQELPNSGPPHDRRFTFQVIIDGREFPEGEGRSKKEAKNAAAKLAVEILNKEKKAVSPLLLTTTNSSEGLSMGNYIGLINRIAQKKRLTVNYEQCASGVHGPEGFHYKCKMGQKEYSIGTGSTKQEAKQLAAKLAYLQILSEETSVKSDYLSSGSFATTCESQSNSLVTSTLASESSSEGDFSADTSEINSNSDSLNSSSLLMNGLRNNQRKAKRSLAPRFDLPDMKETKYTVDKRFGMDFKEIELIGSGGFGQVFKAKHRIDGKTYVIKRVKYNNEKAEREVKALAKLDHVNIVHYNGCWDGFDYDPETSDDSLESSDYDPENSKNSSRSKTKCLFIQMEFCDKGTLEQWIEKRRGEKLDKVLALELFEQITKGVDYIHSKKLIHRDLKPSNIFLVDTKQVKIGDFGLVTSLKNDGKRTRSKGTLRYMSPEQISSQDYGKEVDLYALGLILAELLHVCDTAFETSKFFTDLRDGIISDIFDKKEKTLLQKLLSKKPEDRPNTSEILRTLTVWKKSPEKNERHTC"}
{"Oligonucleotide": "CTGACCTCATCATTTTCTTAAAAACTGACACTTACAATGTGGTCAGTT (dsDNA)", "target": "protein holo K360Q/R364Q (Bacillus clausii, UniProt A0A268NVG2)", "assay": "fluorescence titration", "system": "double-stranded DNA, one strand shown", "setting": "Mg2+ 5 mM, apparent, Hill fit, added: PLP", "quantity": "Kd", "value": "33.8 ± 2.6 nM"}
{"Oligonucleotide": "CGGGGCGGGCCGGGGGCGGGGT (G-quadruplex DNA; parallel in K+)", "target": "APEX1 full length assumed D210A (Homo sapiens, UniProt P27695)", "assay": "fluorescence anisotropy", "system": "folded DNA", "setting": "K+ 50 mM, added: Mg2+ 10 mM", "quantity": "Kd", "value": "55 ± 4 nM"}
{"Oligonucleotide": "RNA 1 GGAGGAUGUUAAUUGGCGUGUCUUGUCUGCAACGGUAUUC / RNA 2 GAAUACCGUUGCAGACAAGACACGCCAAUUAACAUCCUCC (dsRNA)", "target": "EIF2AK2 1-185 F41W/Q110A (Homo sapiens, UniProt P19525)", "assay": "tryptophan fluorescence anisotropy", "system": "double-stranded RNA", "setting": "1 µM", "quantity": "binding", "value": "binds"}
{"Oligonucleotide": "GAAACGGGACGGCACCUCUUUUAACCCUUGAAGUCACUGCCCGUUUCGAGAGUUUCUCAACUCGAAUAACUAAAGCCAACGUGAACUUUUGCGGAUCUCCAGGAUCCGCUUUUUUUU (structured RNA)", "target": "hfq full length assumed N48W (Escherichia coli, UniProt P0A6X3)", "assay": "tryptophan fluorescence quenching", "system": "folded RNA", "quantity": "binding", "value": "binds"}
{"Oligonucleotide": "DNA 1 GATCATACTAATACTCGGCCCAAAG / DNA 2 CTTTCCGCCGAGTATTAGTATGATC (dsDNA; 25-mer duplex)", "target": "alkA 1-282 (Escherichia coli, UniProt P04395)", "assay": "competition", "system": "double-stranded DNA", "quantity": "Ki", "value": "38 ± 5 nM"}
{"Oligonucleotide": "UGGAGCCUUCCACCCCGGCACUCAUGACGGUCUGCCUGAAAACCAGCCCGCUGGUGGGGCAGUCCCGAGGACCUGGCGUGCAUCCCCGCCGGAGGAAGGUCCA (structured RNA)", "target": "SECISBP2 (Homo sapiens, UniProt Q96T21)", "assay": "EMSA", "system": "folded RNA", "quantity": "Kd", "value": "320 ± 5 nM"}
{"Oligonucleotide": "CTGACCTCATCATCTCCCTACACACTGACACTTACAATGTGGTCAGTT (dsDNA)", "target": "protein holo K126Q/K129Q (Bacillus clausii, UniProt A0A268NVG2)", "assay": "fluorescence titration", "system": "double-stranded DNA, one strand shown", "setting": "Mg2+ 5 mM, apparent, Hill fit, added: PLP", "quantity": "Kd", "value": "61.3 ± 3 nM"}
{"Oligonucleotide": "AGGGGTTACTGAGTAGTTACCAAAGCTTTTTAAGCAGTGAGTATTTACTAAGCCTGGGGG (dsDNA)", "target": "ribK full length assumed (UniProt H2C8H2)", "assay": "fluorescence polarization", "system": "double-stranded DNA, one strand shown", "setting": "added: CTP 100 µM", "quantity": "K1/2", "value": "105 nM"}
